Measurements from different studies.
“And” joins repeats or separate records; there may be more than shown. ± gives the spread as reported.
OPRM1: Mu-type opioid receptor (OPRM1, Homo sapiens, UniProt P35372)

COc1ccc2c(c1)[C@]13CCCC[C@@H]1[C@H](C2)N(C)CC3  inhibition (OPRM1; ligand displacement, radioligand; 10 µM): 75.3%
CCOC(=O)[C@](CC)(CCCSCCOCCOCCNC(=O)c1ccc(-c2c3ccc(=N)c(S(=O)(=O)O)c-3oc3c(S(=O)(=O)O)c(N)ccc23)c(C(=O)O)c1)NC(=O)c1ccc(C2CC2)c(Cc2ccc(F)cc2)n1  inhibition (OPRM1; ligand displacement, radioligand; 10 µM): 0%
C/C(=N\OCCCN1CCCCC1)c1ccc(C(F)(F)F)cc1  inhibition (OPRM1; antagonist, cAMP; 10 µM): 6.56%
CN[C@@H]1[C@H](O)[C@H](NC)[C@H]2O[C@]3(O)[C@H](O[C@@H]2[C@H]1O)O[C@H](C)C[C@H]3NC(=O)Cc1ccc(Cl)cn1  inhibition (OPRM1; ligand displacement, radioligand; 10 µM): -2%
O=C(O)c1ccc(-c2nc(-c3ccccc3Cl)c3sccn23)cc1  specific binding (OPRM1; radioligand binding, safety screen panel; 10 µM; baseline: control): 99% and 98.6%
N[C@H](C(=O)N1CCCC1)C1CCN(c2nccc3c(-c4ncc(Cl)cc4Cl)cccc23)CC1  response (OPRM1; functional response, agonist; 10 µM): -12%
CCN(CC)CCOc1ccc(-c2nnn(Cc3ccc(OC)cc3)c2N)cc1  inhibition (OPRM1; radioligand binding; HEK293; 10 µM, safety profiling): 9.88%
Cc1cc(Nc2nc(C[C@@]3(C(=O)O)CCN(Cc4cccc(Cl)c4F)[C@H](C)C3)cc(C)c2F)[nH]n1  activation (OPRM1; agonist; 10 µM): -0.34%
Cc1sc2c(c1C)C(c1ccc(Cl)cc1)=NC(CC(=O)OC(C)(C)C)c1nnc(C)n1-2 (stereo not shown)  remaining binding (OPRM1; ligand displacement, radioligand; 1 µM): 104%
Cc1cc(-c2ccc3ccccc3c2)nnc1NCCN1CCN(C)CC1  antagonist activity (OPRM1; antagonist; concentration not given): negative
O=C(Cc1ccc(Cl)c(Cl)c1)N1CCN[C@@H]2COC[C@H](N3CCCC3)[C@H]21  inhibition (OPRM1; radioligand binding; up to 20 µM, with: [3H]DAMGO): ≤ 50%
C[C@@H](Cc1ccsc1)NC(=O)NC[C@H](Cc1ccc(O)cc1)N(C)C  Emax (OPRM1; β-arrestin recruitment, agonist; HEK-293T): < 5%
COc1cc2c(cc1NC(=O)c1cncn1C)C[C@H]1[C@H]3CCCC[C@@]23CCN1C  inhibition (OPRM1; ligand displacement, radioligand; 1 µM): 9.6%
CN(C)[C@H](CNC(=O)/C=C/c1cccc2ccccc12)Cc1ccc(O)cc1  Emax (Mu-type opioid receptor, with Gi3 (OPRM1, Homo sapiens, UniProt P35372); receptor activation, agonist): 67 ± 7%
COc1cc2c(cc1-n1ccnc1)C[C@H]1[C@H]3CCCC[C@@]23CCN1C  inhibition (OPRM1; ligand displacement, radioligand; 10 µM): 77.9%
C[C@@H]1COCCN1c1nc(NCc2cccnc2C(F)(F)F)c2cccnc2n1  IC50 (OPRM1; binding; CEREP panel): 3.46 µM

Excerpt of the above:
COc1cc2c(cc1NC(=O)c1cncn1C)C[C@H]1[C@H]3CCCC[C@@]23CCN1C  inhibition (OPRM1; ligand displacement, radioligand; 1 µM): 9.6%
CN(C)[C@H](CNC(=O)/C=C/c1cccc2ccccc12)Cc1ccc(O)cc1  Emax (Mu-type opioid receptor, with Gi3 (OPRM1, Homo sapiens, UniProt P35372); receptor activation, agonist): 67 ± 7%
